Published values of several laboratories.
Lines come from different studies, so protocols differ. Several values in a cell are separate wells, animals, samples, runs or records. ± gives the spread as reported.

Structure (SMILES) | organism | assay | test system | conditions | EC50
CCCCCC(=O)N[C@@H](Cc1ccc(N)cc1)C(=O)N[C@@H](CCCC)C(=O)N[C@@H](Cc1ccccc1)C(=O)[C@@]1(C)CO1 | Trypanosoma brucei | parasite growth, SYBR Green | – | 72 h | 567 nM
Cc1ccc2c(c1)nc(NC(=O)c1cccc(C(F)(F)F)c1)n2[C@H]1CC[C@H](N)CC1 | Trypanosoma brucei brucei | growth inhibition, CellTiter-Glo | Lister 427 bloodstream form | 48 h | 293 nM and 260 nM
O=S(=O)(c1ccc(-c2ccc3ncnc(Nc4ccc(O)c(Cl)c4)c3c2)cc1)N1CCOCC1 | Leishmania major | parasite growth, resazurin | – | promastigote | > 15000 nM
Cc1[nH]c2ccccc2c1CC(=O)N[C@@H](Cc1ccccc1)C(=O)N(C)c1ccccc1 | HIV-2 | viral replication | – | – | 2200 ± 500 nM
CCC(=O)N1CCN(c2ccc(NC(=O)c3ccc([N+](=O)[O-])o3)cc2Cl)CC1 | Mus musculus | gene silencing, high-content imaging | LDR reporter GFP cells | confirmation, mean of two runs | 1780 nM
[2H]C([2H])(N)C([2H])([2H])NC(=O)c1cc(C2CC2)nc2c1cnn2C(C)C | Enterovirus D68 | cytopathic effect | RD, US/MO/14-18947 | – | 160 nM
CC1=C/C(=N\N=C(/S)Nc2cccnc2)CC(C)(C)C1 | Mus musculus | gene silencing, high-content imaging | LDR reporter GFP cells | retest, mean of two runs | 7940 nM
COc1cccc(COc2ccc(Nc3ncnc4ccc(-c5ccc(S(=O)(=O)N6CCOCC6)cc5)cc34)cc2Cl)c1 | Leishmania major | parasite growth, resazurin | – | promastigote | > 15000 nM
Cc1ccc(N(C)C(=O)[C@H](Cc2ccccc2)NC(=O)Cc2c[nH]c3ccc(O)cc23)cc1 | HIV-2 | viral replication | – | – | 350 ± 90 nM
CCCCCC(=O)NC(CC(=O)N(CC)CC)C(=O)NC(Cc1ccc(F)cc1)C(=O)NC(Cc1ccc(F)cc1F)C(=O)C1(C)CO1 (centres unmarked) | Trypanosoma brucei | parasite growth, SYBR Green | – | – | 157 nM
Cc1ccc(C(C)C)c(OCc2ccc(C(=O)N/N=C/c3cccc(O)c3O)cc2)c1 | Mus musculus | gene silencing, high-content imaging | LDR reporter GFP cells | retest, mean of two runs | 1580 nM
CN1CCN(c2cccc(-c3ccc4ncnc(Nc5ccc(OCc6cccc(F)c6)c(Cl)c5)c4c3)c2)CC1 | Leishmania major | parasite growth, resazurin | – | promastigote | 1900 nM
Oc1c(/N=N/c2ccccn2)ccc2ccccc12 | Mus musculus | gene silencing, high-content imaging | LDR reporter GFP cells | retest, mean of two runs | 10000 nM
O=C(c1ccc(-c2ccc3ncnc(Nc4ccc(OCc5cccc(F)c5)c(Cl)c4)c3c2)cc1)N1CCCCC1 | Leishmania major | parasite growth, resazurin | – | promastigote | 1000 nM
